Published values of several laboratories.
Each line is one published result; not all experiments were run side by side. Several values in a cell are separate wells, animals, samples, runs or records.
Target: Serine/threonine-protein kinase WNK2 (WNK2, Homo sapiens, UniProt Q9Y3S1)

COc1c(OCCCN2CCOCC2)ccc2c1N=C(NC(=O)c1cnc(N)nc1)N1CCN=C21
remaining activity (kinase activity, inhibitor; 1 µM; reference: untreated control): 108%

COc1cc(Nc2nc(C)cc(-c3cnn4nc(OC)ccc34)n2)cc(C(F)(F)F)c1
remaining binding (binding, competition with immobilised ligand; 1 µM): 100%

O=C=[N][Ru-4]123([n]4c5ccc(O)cc5c5c6c(c7cc(F)c[n+]1c7c54)C(=O)NC6=O)[S+]1CC[S+]2CC[S+]3CC1 (centres unmarked)
remaining activity (enzyme activity; 100 nM, human enzyme, together with: 10 µM ATP; reference: untreated): 90%

NC(=O)C[C@H]1CCc2sc3ncnc(O[C@H]4CC[C@H](N5CCOCC5)CC4)c3c21
inhibition (enzyme activity, inhibitor; 10 µM): 5%

COc1cc(Nc2nccc(-c3cnn4nc(OC)ccc34)n2)cc(C(F)(F)F)c1
remaining binding (binding, competition with immobilised ligand; 1 µM): 100%

COc1c(Cl)cccc1Nc1c(-c2ccncc2C#C[C@@]2(C)CCCN2C(=O)/C=C/CN(C)C)[nH]c2c1C(=O)NCC2
remaining binding (binding, competition with immobilised ligand; 3 µM): 83%

CNC(=O)C[C@H](Cc1ccc(C#N)cc1)NC(=O)c1cc(-c2ccc(CN[C@H](C)c3ccc(C)cc3)o2)ccc1Cl
activity vs control (enzyme activity, inhibitor; 1 µM): 110%

Nc1ncc(-c2cc(-c3cnn(CC(F)(F)F)c3)ncc2F)nc1C(=O)NC1CNCC(F)C1 (centres unmarked)
remaining activity (enzyme activity; 1 µM; reference: DMSO control): 101%

NC(=O)[C@@H](O)C[C@H]1CCc2sc3ncnc(O[C@H]4CC[C@H](N5CCOCC5)CC4)c3c21
inhibition (enzyme activity, inhibitor; 10 µM): 1%

Nc1ncc2c(n1)-c1c([nH]c3ccc(C4=CCOCC4)cc13)CCC2
remaining binding (binding, competition with immobilised ligand; 1 µM): 92%

COc1ccc(NC(=O)Nc2ccc3c(c2)C(=O)N(C(C)CO)CC(C)C(CN(C)Cc2ccc4c(c2)OCO4)O3)cc1 (centres unmarked)
remaining activity (kinase activity, KinaseProfiler; 0.03 µM, species human; reference: control): 91%

COCC12C(=O)NC3C4(C(OC)CC1O)C1CC5(O)C(OC)C(O)C(OC(C)=O)(C1C5OC(=O)c1ccccc1)C3(O)C(OC)C24 (centres unmarked)
remaining activity (kinase activity, inhibitor, ProQinase kinase profiling; 25 µM; reference: control): 97% and 79%

C=CC(=O)N1Cc2nc(-c3cc(-c4cc(Cl)cnc4Cl)c(F)cc3F)n(-c3ccncn3)c2C1
inhibition (cell-free assay, inhibitor; 1 µM): 6.2%

Cc1nc2c(F)cc(-c3nc(Nc4ccc(CNC(=O)CCCCCCC(=O)NO)cc4)ncc3F)cc2n1C(C)C
inhibition (enzyme activity, inhibitor; 1 µM): 76%

CN1CC[C@@H](COc2cnc(C#N)cc2-c2ccn3nc(NC(=O)C4CC4)cc3c2)C1
inhibition (enzyme activity, inhibitor; 1 µM): 4%

CC(C)=CC1OC(C)(C)C2C=C3C(=O)C(Cl)=CC(O)C3C3C(O)C4OC4C(=O)C132 (centres unmarked)
remaining binding (cell-free assay, competition with immobilised ligand; 10 µM): 72%

O=C(Cc1ccc(OCc2ccccc2)cc1)NC1(C(=O)O)CCN(C(=O)c2ccc(-c3cccc(Cl)c3)cc2)CC1
activity vs control (enzyme activity, inhibitor; 10 µM): 116%

CCN1CCN(Cc2ccc(NC(=O)c3ccc(C)c(NC(=O)c4cncc(-c5cnn(C)c5)c4)c3)cc2C(F)(F)F)CC1
remaining binding (binding, competition with immobilised ligand; 1 µM): 100%

CN1CCN(Cc2ccc(-c3ccc(CO[C@H]4CCC[C@@H]4NC(=O)c4cc(-c5cnn(C)c5)cnc4N)cc3)cc2)CC1
inhibition (enzyme activity, inhibitor; 0.1 µM): -10%

C=CC(=O)N1CCCC(n2c(=O)c3ncccc3n(Cc3ccc(Oc4ccccc4)cc3)c2=O)C1 (centres unmarked)
remaining binding (cell-free assay, competition with immobilised ligand; 1 µM): 85%

CNC(=O)C1CCN(c2cc(C)c(F)cc2NC(=O)c2ccc(-c3cc(O)ccc3C)c(C)c2)CC1
remaining binding (binding, competition with immobilised ligand; 1 µM): 63%

O=C(Nc1ccc(Oc2ncnc3[nH]cc(-c4ccccc4)c23)c(F)c1)c1c2n(n(-c3cc(F)ccc3F)c1=O)CCCC2
inhibition (enzyme activity, inhibitor; 0.5 µM): 29%

Cc1cnc2nc1Nc1cccc(c1)COC/C=C/COCc1cc(ccc1OCCN1CCOCC1)N2
remaining binding (binding, competition with immobilised ligand; 0.1 µM): 87%

Some of these lines once more:
COc1cc(Nc2nccc(-c3cnn4nc(OC)ccc34)n2)cc(C(F)(F)F)c1
remaining binding (binding, competition with immobilised ligand; 1 µM): 100%

COc1c(Cl)cccc1Nc1c(-c2ccncc2C#C[C@@]2(C)CCCN2C(=O)/C=C/CN(C)C)[nH]c2c1C(=O)NCC2
remaining binding (binding, competition with immobilised ligand; 3 µM): 83%
